{"data": "Results collected from several papers", "note": "Parts stem from different laboratories: compare values within a part only."}
{"data": "Study 1", "target": "Phosphate system positive regulatory protein PHO4, full length, GST-tagged (PHO4, Saccharomyces cerevisiae, UniProt P07270, residues 1-312)", "technique": "competition protein-binding microarray", "form": "double-stranded DNA, one strand shown", "medium": "in vitro", "tested at": "2 µM", "setting": "whole 60-bp probe, lowest competitor level", "together with": "Cbf1 competitor, 0.05 µM", "direction": "higher = stronger binding", "constant ends, left off below": "… GTCTTGATTCGCTTGACGCTGCTG", "Construct (chain)": "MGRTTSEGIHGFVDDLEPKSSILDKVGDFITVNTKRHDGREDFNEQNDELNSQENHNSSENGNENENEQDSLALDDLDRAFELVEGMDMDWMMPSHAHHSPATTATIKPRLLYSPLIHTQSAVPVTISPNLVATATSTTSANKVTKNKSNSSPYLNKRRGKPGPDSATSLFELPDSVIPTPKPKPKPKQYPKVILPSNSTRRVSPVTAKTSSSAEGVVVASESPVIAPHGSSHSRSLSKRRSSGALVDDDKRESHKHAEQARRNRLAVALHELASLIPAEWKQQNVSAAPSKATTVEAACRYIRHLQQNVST"}
{"Strand": "AAATTACTAAGTTTTCACGTGGCGTACCCCGTATGA", "fluorescence intensity": "14100 a.u."}
{"Strand": "AAATTACTAAGTTGCACTGTGGGTGACGCCGTATGA", "fluorescence intensity": "4370 a.u."}
{"Strand": "CATACCCAACCTTTTCACGTGCGATAAGATATTTGT", "fluorescence intensity": "12700 a.u."}
{"Strand": "CTTCTGTAAATTTGCGCCGTGGGTGGACGCGCCCCG", "fluorescence intensity": "5500 a.u."}
{"Strand": "TGCGCAACAACTTGTCACACCACTTTATGTCTAGAA", "fluorescence intensity": "4750 a.u."}
{"Strand": "GTCTGCCGTTTGTTACATGTGGATGTGTTACTGAGT", "fluorescence intensity": "10200 a.u."}
{"Strand": "AGAGGGTAGCTTGCTGACATGCAGACCTCTCCCCGG", "fluorescence intensity": "5270 a.u."}
{"Strand": "TATCACTCTTGATCGCATGTGCCGTTTCCGAGAACG", "fluorescence intensity": "11600 a.u."}
{"data": "Study 2", "target": "Dual specificity tyrosine-phosphorylation-regulated kinase 1A (DYRK1A, Homo sapiens, UniProt Q13627)", "read-out": "enzyme activity", "action": "inhibitor", "tested at": "0.5 µM", "baseline": "control"}
{"SMILES": "O=C1NC(=O)C(c2cn(CCCO)c3ncccc23)=C1c1cnccn1", "remaining activity [%]": 108}
{"SMILES": "C#Cc1cccc(Nc2ncnc3cc(OCCOC)c(OCCOC)cc23)c1", "remaining activity [%]": 102}
{"SMILES": "COc1cc2ncnc(Nc3ccc(F)c(Cl)c3)c2cc1OCCCN1CCOCC1", "remaining activity [%]": 101}
{"SMILES": "CNC(=O)c1cc(Oc2ccc(NC(=O)Nc3ccc(Cl)c(C(F)(F)F)c3)cc2)ccn1", "remaining activity [%]": 103}
{"SMILES": "CC(C)[C@H](CO)Nc1nc(Nc2cc(N)cc(Cl)c2)c2ncn(C(C)C)c2n1", "remaining activity [%]": 57.1}
{"SMILES": "Cn1c2ccccc2c2c3c(c4c5ccccc5n(CCC#N)c4c21)CNC3=O", "remaining activity [%]": 46.3}
{"data": "Study 3", "target": "Prothrombin, mature alpha-thrombin (F2, Homo sapiens, UniProt P00734)", "technique": "aptamer microarray, sandwich", "form": "DNA with 2'F-ANA", "medium": "in vitro", "tested at": "200 nM", "setting": "whole 15-mer aptamer, many near background", "together with": "Cy3 exosite-II aptamer, 400 nM", "direction": "higher = stronger binding", "strand": "GGTTGGTGTGGTTGG"}
{"Modification": "2'F-ANA at 1 5 8 13", "mean fluorescence intensity [a.u.]": 52.2}
{"Modification": "2'F-ANA at 2 4 5 6 8 9 11 13 14", "mean fluorescence intensity [a.u.]": 48}
{"Modification": "2'F-ANA at 1 2 3 5 6 9 11", "mean fluorescence intensity [a.u.]": 57.4}
{"Modification": "2'F-ANA at 2 6 7 8 11 13 15", "mean fluorescence intensity [a.u.]": 282}
{"Modification": "2'F-ANA at 1 2 3 4 10 11 14", "mean fluorescence intensity [a.u.]": 52.9}
{"Modification": "2'F-ANA at 1 3 4 5 7 8 9 10 12 13", "mean fluorescence intensity [a.u.]": 49.1}
{"Modification": "2'F-ANA at 5 8 13 15", "mean fluorescence intensity [a.u.]": 58.6}
{"Modification": "2'F-ANA at 1 4 7 9 10 11 13 14", "mean fluorescence intensity [a.u.]": 43.4}
{"data": "Mixed results"}
{"SMILES": "CN([C@@H]1CCc2c(CC(=O)O)c3ccccc3n2C1)S(=O)(=O)c1ccc(F)cc1", "target": "Epidermal growth factor receptor (EGFR, Homo sapiens, UniProt P00533, L858R)", "test": "cell-free assay, competition with immobilised ligand", "conditions": "1 µM", "quantity": "remaining binding", "value": "93%"}
{"note": "A few entries again (study 3):"}
{"Modification": "2'F-ANA at 2 4 5 6 8 9 11 13 14", "mean fluorescence intensity [a.u.]": 48}
{"Modification": "2'F-ANA at 2 6 7 8 11 13 15", "mean fluorescence intensity [a.u.]": 282}
{"Modification": "2'F-ANA at 5 8 13 15", "mean fluorescence intensity [a.u.]": 58.6}
{"Modification": "2'F-ANA at 1 5 8 13", "mean fluorescence intensity [a.u.]": 52.2}
